Assay results collected from several papers.
Compare with care: the assays were run in different laboratories. “And” joins repeats or separate records; there may be more than shown.
Target: Tyrosine-protein kinase ZAP-70 (ZAP70, Homo sapiens, UniProt P43403)

SMILES	test	setting	how to read	endpoint	result
C=CC(=O)N1CCCC(n2c(=O)c3ncccc3n(Cc3ccc(Oc4ccccc4)cc3)c2=O)C1 (stereo not shown)	cell-free assay, competition with immobilised ligand	1 µM		remaining binding	85%
CN1CCN(Cc2ccc(-c3ccc(CO[C@H]4CCC[C@@H]4NC(=O)c4cc(-c5cnn(C)c5)cnc4N)cc3)cc2)CC1	enzyme activity, inhibitor	0.1 µM		inhibition	14%
COc1c(OCCCN2CCOCC2)ccc2c1N=C(NC(=O)c1cnc(N)nc1)N1CCN=C21	kinase activity, inhibitor	1 µM	reference: untreated control	remaining activity	102%
COc1c(Cl)cccc1Nc1c(-c2ccncc2C#C[C@@]2(C)CCCN2C(=O)/C=C/CN(C)C)[nH]c2c1C(=O)NCC2	binding, competition with immobilised ligand	3 µM		remaining binding	72%
Nc1ncc(-c2cc(-c3cnn(CC(F)(F)F)c3)ncc2F)nc1C(=O)NC1CNCC(F)C1 (stereo not shown)	enzyme activity	1 µM	reference: DMSO control	remaining activity	107%
Cc1ccc(-c2c(/C=C(\C#N)C(=O)NC(C)C)n(CCCO)c3ncnc(N)c23)cc1	cell-free assay, competition with immobilised ligand	1 µM		remaining binding	67%
CCN1CCN(Cc2ccc(C(=O)Nc3ccc(C)c(NCc4cnc5[nH]ccc5c4OC)c3)cc2C(F)(F)F)CC1	binding, competition with immobilised ligand	1 µM		remaining binding	45%
COc1cc(Nc2nc(C)cc(-c3cnn4nc(OC)ccc34)n2)cc(C(F)(F)F)c1	binding, competition with immobilised ligand	1 µM		remaining binding	95%
COCC12C(=O)NC3C4(C(OC)CC1O)C1CC5(O)C(OC)C(O)C(OC(C)=O)(C1C5OC(=O)c1ccccc1)C3(O)C(OC)C24 (stereo not shown)	kinase activity, inhibitor, ProQinase kinase profiling	25 µM	reference: control	remaining activity	100% and 97%
C=CC(=O)N1CCc2ccc(-n3c(=O)ccc4cnc5ccc(-c6cnn(C)c6)cc5c43)cc21	KINOMEscan	1 µM	reference: DMSO control	remaining binding	90%
Cc1cccc(O[C@H]2CCC[C@@H](C(C)CNCc3ccncc3)C2)c1 (relative stereo)	enzyme activity, inhibitor	10 µM		inhibition	0%
CNS(=O)(=O)Nc1nccc(Cc2c(C)c3ccc(Oc4ncccc4F)cc3oc2=O)c1F	binding, competition with immobilised ligand	10 µM		remaining binding	100%
COc1ccc(NC(=O)Nc2ccc3c(c2)C(=O)N(C(C)CO)CC(C)C(CN(C)Cc2ccc4c(c2)OCO4)O3)cc1 (stereo not shown)	kinase activity, KinaseProfiler	0.03 µM, species human	reference: control	remaining activity	102%
CNC(=O)C[C@H](Cc1ccc(C#N)cc1)NC(=O)c1cc(-c2ccc(CN[C@H](C)c3ccc(C)cc3)o2)ccc1Cl	enzyme activity, inhibitor	1 µM		activity vs control	111%
O=C=[N][Ru-4]123([n]4c5ccc(O)cc5c5c6c(c7cc(F)c[n+]1c7c54)C(=O)NC6=O)[S+]1CC[S+]2CC[S+]3CC1 (stereo not shown)	enzyme activity	100 nM, human enzyme, with: 10 µM ATP	reference: untreated	remaining activity	123%
C=CC(=O)Nc1cccc(-c2cnc3[nH]cc(C(=O)NC(C)(C)C)c3n2)c1	enzyme activity, inhibitor	0.1 µM		inhibition	28%
CNC(=O)C1CCN(c2cc(C)c(F)cc2NC(=O)c2ccc(-c3cc(O)ccc3C)c(C)c2)CC1	binding, competition with immobilised ligand	1 µM		remaining binding	97%
NC(=O)[C@@H](O)C[C@H]1CCc2sc3ncnc(O[C@H]4CC[C@H](N5CCOCC5)CC4)c3c21	enzyme activity, inhibitor	10 µM		inhibition	3%
CN1CCN(Cc2ccc(NC(=O)c3cccc(C#Cc4cnc(N)c5ncccc45)c3)cc2C(F)(F)F)CC1	cell-free assay, competition with immobilised ligand	50 nM		remaining binding	78%

A few entries again:
SMILES	test	setting	how to read	endpoint	result
COCC12C(=O)NC3C4(C(OC)CC1O)C1CC5(O)C(OC)C(O)C(OC(C)=O)(C1C5OC(=O)c1ccccc1)C3(O)C(OC)C24 (stereo not shown)	kinase activity, inhibitor, ProQinase kinase profiling	25 µM	reference: control	remaining activity	100% and 97%
C=CC(=O)N1CCc2ccc(-n3c(=O)ccc4cnc5ccc(-c6cnn(C)c6)cc5c43)cc21	KINOMEscan	1 µM	reference: DMSO control	remaining binding	90%
